Results from different studies.
Each line is one published result; not all experiments were run side by side. ± marks the error that the study gave.
Cell line: A549

CC(C)=CCc1c(O)cc2oc3cc(O)c(O)c(CC=C(C)C)c3c(=O)c2c1O has an IC50 of 10.1 µM (cell growth or viability; 48 h).
N=C(N)NCCC[C@@H]1NC(=O)[C@H](CCCCN)NC(=O)[C@@H](Cc2ccc(O)cc2)NC(=O)[C@H](CC(=O)O)NC(=O)CNC1=O has an IC50 of greater than 100 µM (cell growth or viability, MTT).
The IC50 of N#Cc1cccc(-c2ccc(=O)n(Cc3cccc(-c4ncc(OCC5CCN(CCCC(=O)Nc6cccc7c6C(=O)N(C6CCC(=O)NC6=O)C7=O)CC5)cn4)c3)n2)c1 (stereo not shown) is reported as 0.653 µM (cell growth or viability, CCK-8; 72 h).
[Cl-].[Cl-].[Ru+2].c1ccc(-c2ccnc3c2ccc2c(-c4ccccc4)ccnc23)cc1.c1cnc2c(c1)ccc1cccnc12.c1cnc2c(c1)ccc1cccnc12 has an IC50 of 11.8 µM (cell growth or viability; 72 h, dark).
O=C1c2cccc3cccc(c23)C12NC(Cc1ccc(O)cc1)C([N+](=O)[O-])C2c1cccc([N+](=O)[O-])c1 (stereo not shown) has an IC50 of 65.4 µM (cell growth or viability, MTT; 48 h).
With COc1ccc(/C=C/C2=[N+]3C(=C(CO)c4c(C)cc(/C=C/c5ccc(OC)cc5)n4[B-]3(C)C)C(C)=C2)cc1 the IC50 was 1.5 ± 0.4 µM (phototoxicity, resazurin; together with: 645 nm light, 9.00 J/cm2).
For N=C(N)Nc1nc2ccccc2o1, the IC50 was 167 µM (cell growth or viability, MTT; 24 h).
CCCCCCC(=O)NCCNC(=O)[C@@]1(C)[C@H](O)CC[C@@]2(C)[C@H]1CC[C@]1(C)[C@@H]2C(=O)C=C2[C@@H]3[C@@H](C)[C@H](C)CC[C@]3(C)CC[C@]21C gave an IC50 of 19.5 µM (cell growth or viability, MTT; 48 h).
The IC50 of COC(=O)CCC(=O)[O][Pt-2]1([OH])([Cl])([Cl])[NH2+]CC[N+]1(C)C is reported as 48 µM (cell growth or viability, MTT; 96 h).
[Cl-].[Cl-].[Ru+2].c1ccc2nc(-c3ccc4ccccc4n3)ccc2c1.c1ccc2nc(-c3ccc4ccccc4n3)ccc2c1.c1cnc2c(c1)ccc1cccnc12 has an IC50 of 9.2 µM (resazurin; 72 h, together with: indigo light 450 nm, 29.1 J/cm2).
The IC50 of CC(=O)O[C@@H]1CC[C@@]2(C)[C@@H](CC[C@]3(C)[C@@H]2C(=O)C=C2[C@@H]4[C@@H](C)[C@H](C)CC[C@]4(C)CC[C@]23C)[C@@]1(C)C(=O)NCCNC(=O)CCBr is reported as 26.8 µM (cell growth or viability, MTT; 48 h).
For CCn1cc[n+](CC)[c]1[Au-]([Cl])([Cl])[Cl], the IC50 was 23.6 µM (cell growth or viability, crystal violet; 72 h).
With O=C1/C(=C/c2ccc3c(c2)OCCO3)SC(=S)N1[C@@H]1O[C@H](CO)[C@@H](O)[C@H](O)[C@H]1O the IC50 was 4.5 µM (cell growth or viability, MTT; 48 h).
With Cc1cc(C)c([N+]#[C][Pd-]([Cl])([Cl])=[C](Nc2cccc(CN[C](Nc3c(C(C)C)cccc3C(C)C)=[Au][Cl])c2)Nc2c(C)cc(C)cc2C)c(C)c1 the IC50 was 30 µM (cell growth or viability).
N.N.O=C(CCCc1ccccc1)[O][Pt]([Cl])([Cl])[O]C(=O)CCCc1ccccc1 has an IC50 of 0.17 µM (cell growth or viability).
With O=C(Cn1cc(C2CC(c3ccccc3)=NN2)nn1)Nc1nc(-c2ccccc2)cs1 (stereo not shown) the IC50 was 0.014 µM (cell growth or viability, MTT; 72 h).
For Cc1ccc(C(C)C)cc1.Oc1ccccc1C=NNC1=Nc2ccccc2-c2[nH]c3ccc(Br)cc3c2C1.[Cl-].[Cl][Os+], the IC50 was 4.6 µM (cell growth or viability, MTT; 96 h).
For COc1ccc(/C=C/C2=[N+]3C(=C(C=O)c4c(C)c(Br)c(/C=C/c5ccc(OC)cc5)n4[B-]3(F)F)C(C)=C2Br)cc1, the IC50 was greater than 100 µM (cell growth or viability, resazurin; dark).
With Clc1ccc(NN=C(c2ccccc2)c2ccccn2)nc1 the IC50 was 0.25 µM.
The IC50 of Cc1c(C)c(C)[c-](C)c1C.O=Cc1ccc(-c2[c-]cccc2)nc1.[Cl-].[Ir+3] is reported as 5.9 ± 0.1 µM (SRB; 24 h, 72 h recovery).
The IC50 of Nc1ncnc2c1C(c1cccs1)C1=C(CCCC1=O)O2 (stereo not shown) is reported as 46 µM (cell growth or viability, MTT; 72 h).
The IC50 of COc1ccc(C2=NN(C3=NC(=O)C(=Cc4ccc(O)cc4)S3)C(c3ccc(F)cc3)C2)cc1 (stereo not shown) is reported as 3.92 µM (cell growth or viability, MTT).
For COc1cc(OC)c(/C=C/C(=O)c2c(OC)cc(OC)cc2OC)c(OC)c1, the IC50 was greater than 100 µM (cell growth or viability, MTT; 48 h).
C[C@@H]1C(=O)CC[C@@H]2[C@]1(C)CC[C@H]1[C@@]2(C)CC[C@@]2(C)[C@@H]3CC(C)(C)CC[C@]3(C)CC[C@]12C has an IC50 of greater than 100 µM (cell growth or viability, SRB).
Brc1ccc(Nc2nc(NN=Cc3c[nH]c4ccccc34)nc(-n3ccnc3)n2)cc1 has an IC50 of 1.2 ± 0.01 µM (cell growth, SRB; 120 h).
The IC50 of CC(C)c1cccc(C(C)C)c1N=[C](NCc1ccc(N)cc1)[AuH][Cl] is reported as greater than 100 µM (cell growth or viability).
The IC50 of NCCNC(=O)c1ccc2[nH]c(C(=O)c3ccc(O)cc3)nc2c1 is reported as greater than 300 µM (cell growth or viability, ATP luminescence; 72 h).
N#Cc1cccc(-c2ccc(=O)n(Cc3cccc(-c4ncc(OCC5CCN(CC(=O)N6CCN(CCNc7ccc8c(c7)C(=O)N(C7CCC(=O)NC7=O)C8=O)CC6)CC5)cn4)c3)n2)c1 (stereo not shown) has an IC50 of 0.665 µM (cell growth or viability, CCK-8; 72 h).
The IC50 of COc1cc(/C=C/C(=O)NCCCCCCNC2=C3C[C@@H](C)C[C@H](OC)[C@H](O)[C@@H](C)/C=C(\C)[C@H](OC(N)=O)[C@@H](OC)/C=C\C=C(/C)C(=O)NC(=CC2=O)C3=O)ccc1O is reported as 0.336 µM (cell growth or viability, MTT; 72 h).
For COc1cc(N(C)CCN(C)C)c(NC(=O)/C=C/c2ccc3nc(C)ccc3c2)cc1Nc1nccc(-c2cn(C)c3ccccc23)n1, the IC50 was 0.114 µM (cell growth or viability, MTT; 72 h).
Cc1ccc(NC(=O)N/N=C2\CC3(CCN(C)CC3)Oc3ccccc32)cc1 gave an IC50 of 5.12 µM (cell growth or viability, MTT; 48 h).
The IC50 of O=C(c1ccc[nH]1)c1ccccc1O is reported as greater than 64 µg/mL (cell growth or viability, resazurin; 24 h).
For C[C@]12CC/C(=N\OCCN3CCOCC3)C=C1CCC1C2CC[C@]2(C)/C(=C/c3ccccn3)CCC12 (stereo partly shown), the IC50 was 5.6 µM (cell growth or viability, MTT; 72 h).
For OC[C@H]1[C@@H](O)[C@@H](O)CN1Cc1ccc(Br)cc1, the IC50 was greater than 200 µM (cell growth or viability, MTS; 72 h).
For C#CCOc1ccc(/C=N\NC(=O)c2ccncc2)cc1, the IC50 was 298 µM (cell growth or viability, MTT; 48 h).
With COCCOCCSc1nc(N)c2c(F)c(C#N)c(F)c(F)c2n1 the IC50 was 6.5 µM (cell growth or viability, MTT; 96 h).
The IC50 of C=C1C2CCC3(CCC4C5(C)CCCC4(CN(CCO)C5)C3C2)C1O (stereo not shown) is reported as 13.7 µM (cell growth or viability, MTT).
The IC50 of CCCCSc1nc(N)c2c(F)c(C#N)c(F)c(F)c2n1 is reported as 41.1 µM (cell growth or viability, MTT; 96 h).
COc1ccc(C2C([N+](=O)[O-])C(Cc3ccc(O)cc3)NC23C(=O)c2cccc4cccc3c24)cc1 (stereo not shown) has an IC50 of 68.2 µM (cell growth or viability, MTT; 48 h).
For CC(C)(C)N=[C](NCc1ccc(N)cc1)[AuH][Cl], the IC50 was greater than 100 µM (cell growth or viability).
The IC50 of S=c1n(-c2ccccc2)c2c3ccccc3nc3[n+]2[n]1[Ir-3]12([S]3)([c]3cccc4ccc5ccc[n+]1c5c34)[c]1cccc3ccc4ccc[n+]2c4c13 is reported as 0.0019 ± 0.0001 µM (cell viability, MTT; irradiation 450 nm, 15.5 mW/cm^2, 15 min).
The IC50 of CC(=O)O[C@@H]1CC[C@@]2(C)[C@@H](CC[C@]3(C)[C@@H]2C(=O)C=C2[C@@H]4[C@@H](C)[C@H](C)CC[C@]4(C)CC[C@]23C)[C@@]1(C)C(=O)NCCNC(=O)c1ccccc1 is reported as 13 µM (cell growth or viability, MTT; 48 h).
CCCCCCCC(=O)Oc1c(C)c(OC)c2c(c1C)OC(=O)[C@@H](CCCCCC)[C@]2(O)/C=C/c1ccccc1 (racemic) has an IC50 of greater than 50 µM (cell growth or viability, SRB; 72 h).
With CCOC12C(O)C(OC)C3(O)CC(C1C3OC(=O)c1ccccc1)C13C(OC)CCC4(COC)CN(C)C1C2C(OC)C43 (stereo not shown) the IC50 was 14.5 µM (cell growth or viability, MTT).
With COc1ccc2cc([C@H](C)C(=O)[O][Pt]([NH2])([NH2])([Cl])([Cl])[O]C(=O)[C@@H](C)c3ccc4cc(OC)ccc4c3)ccc2c1 the IC50 was 0.14 ± 0.04 µM (cell growth, MTT; 48 h).
Cc1cc(C=O)cc(C)c1Oc1cc(Nc2ccc(C#N)cc2)nc2ccncc12 has an IC50 of 45.9 ± 5.5 µM (48 h).
For COc1ccc(-c2nnc(-c3ccccn3)[nH]2)cc1OC, the IC50 was greater than 100 µM (cell growth or viability, MTT; 24 h).
For Brc1ccc2nc3c4ccc[n+]5c4c4c(ccc[n+]4[Ru-4]546([n+]5ccccc5-c5cccc[n+]54)[n+]4ccccc4-c4cccc[n+]46)c3nc2c1.[O-][Cl+3]([O-])([O-])O.[O-][Cl+3]([O-])([O-])O, the IC50 was 94.1 µM (cell growth or viability, MTT; 72 h).
C=C1C(=O)[C@@]23CC[C@@H]4C(C)(C)CCC[C@@]4(COC(C)=O)[C@@H]2[C@@H](O)C[C@@H]1C3 (single isomer, unassigned) has an IC50 of 4 µM (cell growth or viability, MTT).
Cc1ccc(C2=NN(C3=NC(=O)/C(=C/c4ccc(N(C)C)cc4)S3)C(c3ccc(F)cc3)C2)cc1 (stereo not shown) gave an IC50 of 28.8 µM (cell growth or viability, MTT).
CCN(CC)CCN1C(=O)c2ccc3c4cccc5c(NCCN)ccc(c6ccc(c2c36)C1=O)c54 has an IC50 of 5.6 µM (cell growth or viability, SRB; 72 h).
The IC50 of CC(C)c1cccc(C(C)C)c1[N+]#[C][Pt-]([Cl])([Cl])=[C](Nc1ccc(CN[C](NC(C)(C)C)=[Au][Cl])cc1)Nc1c(C(C)C)cccc1C(C)C is reported as greater than 100 µM (cell growth or viability).
For COc1c(O)cc2oc3cc4c(c(O)c3c(=O)c2c1CCC(C)C)CC(O)O4 (stereo not shown), the IC50 was 11.8 µM (cell growth or viability; 48 h).
With CC(C)(C)c1ccc2[c](c1)[Au-]1([Cl])[c]3cc(C(C)(C)C)ccc3-c3cncc-2[n+]31 the IC50 was greater than 50 µM (cell growth or viability, MTS).
Cc1ccc(C(C)C)cc1.O=C(N=P(c1ccccc1)(c1ccccc1)c1ccccc1)c1ccccn1.[Cl-].[Cl-].[Ru+2] has an IC50 of 9.5 µM (cell growth or viability, MTT; 24 h).

Repeated from above:
For COc1ccc(-c2nnc(-c3ccccn3)[nH]2)cc1OC, the IC50 was greater than 100 µM (cell growth or viability, MTT; 24 h).
Brc1ccc(Nc2nc(NN=Cc3c[nH]c4ccccc34)nc(-n3ccnc3)n2)cc1 has an IC50 of 1.2 ± 0.01 µM (cell growth, SRB; 120 h).
O=C1c2cccc3cccc(c23)C12NC(Cc1ccc(O)cc1)C([N+](=O)[O-])C2c1cccc([N+](=O)[O-])c1 (stereo not shown) has an IC50 of 65.4 µM (cell growth or viability, MTT; 48 h).
The IC50 of Cc1c(C)c(C)[c-](C)c1C.O=Cc1ccc(-c2[c-]cccc2)nc1.[Cl-].[Ir+3] is reported as 5.9 ± 0.1 µM (SRB; 24 h, 72 h recovery).
For C#CCOc1ccc(/C=N\NC(=O)c2ccncc2)cc1, the IC50 was 298 µM (cell growth or viability, MTT; 48 h).
CCCCCCC(=O)NCCNC(=O)[C@@]1(C)[C@H](O)CC[C@@]2(C)[C@H]1CC[C@]1(C)[C@@H]2C(=O)C=C2[C@@H]3[C@@H](C)[C@H](C)CC[C@]3(C)CC[C@]21C gave an IC50 of 19.5 µM (cell growth or viability, MTT; 48 h).
With Cc1cc(C)c([N+]#[C][Pd-]([Cl])([Cl])=[C](Nc2cccc(CN[C](Nc3c(C(C)C)cccc3C(C)C)=[Au][Cl])c2)Nc2c(C)cc(C)cc2C)c(C)c1 the IC50 was 30 µM (cell growth or viability).
For OC[C@H]1[C@@H](O)[C@@H](O)CN1Cc1ccc(Br)cc1, the IC50 was greater than 200 µM (cell growth or viability, MTS; 72 h).
The IC50 of CC(C)c1cccc(C(C)C)c1[N+]#[C][Pt-]([Cl])([Cl])=[C](Nc1ccc(CN[C](NC(C)(C)C)=[Au][Cl])cc1)Nc1c(C(C)C)cccc1C(C)C is reported as greater than 100 µM (cell growth or viability).
